Measured values of several laboratories.
Numbered parts are unrelated; each lists some results of a single study.

Block 1 — target: UBE2G2 UBC core domain (UniProt P60604); method: yeast two-hybrid; medium: yeast; setting: mostly zero background; relative to: not given; direction: higher = stronger interaction
B1: TRIM15 RING domain (UniProt Q9C019); chain SLKVVHELPACTLCAGPLEDAVTIPCGHTFCRLCLPALSQMGAQSSGKILLCPLCQEEEQAETPMA
B2: RNF4 RING domain (UniProt P78317); chain TGLRPSGTVSCPICMDGYSEIVQNGRLIVSTECGHVFCSQCLRDSLKNANTCPTCRKKINHKRYHP
B3: RNF14 RING domain (UniProt Q9UBS8); chain IKCFNSKLFLCSICFCEKLGSECMYFLECRHVYCKACLKDYFEIQIRDGQVQCLNCPEPKCPSVATPGQVK
B4: MSL2 RING domain (UniProt Q9HCI7); chain LLPYFRQSLSCCVCGHLLQDPIAPTNSTCQHYVCKTCKGKKMMMKPSCSWCKDYEQFEENKQ
B5: TRIM52 RING domain (UniProt Q96A61); chain PMQTLQEEAVCAICLDYFKDPVSISCGHNFCRGCVTQLWSKEDEEDQNEEEDEWEEEEDEEAV
B6: RNF5 RING domain (UniProt Q99942); chain ERGGAGATFECNICLETAREAVVSVCGHLYCWPCLHQWLETRPERQECPVCKAGISREKVVP
B7: TRIM3 RING domain (UniProt O75382); chain VQPMDKQFLVCSICLDRYQCPKVLPCLHTFCERCLQNYIPAQSLTLSCPVCRQTSILPEQGV
B8: TRIM10 RING domain (UniProt Q9UDY6); chain SVTSLADEVNCPICQGTLREPVTIDCGHNFCRACLTRYCEIPGPDLEESPTCPLCKEPFRPGSFRP
B9: NSMCE1 RING domain (UniProt Q8WV22); chain RETYPDAVKICNICHSLLIQGQSCETCGIRMHLPCVAKYFQSNAEPRCPHCNDYWPHEIPKV
B10: RNF112 RING domain (UniProt Q9ULX5); chain QPMAPRELPTCSICLERLRDPISLDCGHDFCIRCFSTHRLPGCEPPCCPECRKICKQKRGLR
Target sequence (chain): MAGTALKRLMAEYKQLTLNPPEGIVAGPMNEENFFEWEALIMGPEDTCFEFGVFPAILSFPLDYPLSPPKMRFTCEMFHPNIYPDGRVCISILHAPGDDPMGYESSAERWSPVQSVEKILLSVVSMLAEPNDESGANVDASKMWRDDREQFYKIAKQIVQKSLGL
Sequence | lacZ reporter activity
B1 (TRIM15 RING domain) | 0
KIKDLNEHIVCCLCAGYFVDATTITECLHTFCKSCIVKYLQTSKYCPMCNIKIHETQPLL (PCGF1 RING domain (UniProt Q9BSM1)) | 0
B2 (RNF4 RING domain) | 2150
B3 (RNF14 RING domain) | 0
KRQCSDVDDICSICQAEFQKPILLICQHIFCEECMTLWFNREKTCPLCRTVISDHINKW (RNFT1 RING domain (UniProt Q5M7Z0)) | 0
B4 (MSL2 RING domain) | 0
B5 (TRIM52 RING domain) | 0
B6 (RNF5 RING domain) | 0
B7 (TRIM3 RING domain) | 11800
B8 (TRIM10 RING domain) | 0
B9 (NSMCE1 RING domain) | 0
B10 (RNF112 RING domain) | 0

Block 2 — method: RNA Bind-n-Seq; form: RNA; medium: in vitro; tested at: 365 nM; relative to: no-protein control; direction: higher = stronger binding
Target: RNA binding protein fox-1 homolog 2, RRM domain, GST-SBP tag (RBFOX2, Homo sapiens, UniProt O43251-10, residues 100-194)
Setting: natural RNA segment, single round, ends assumed
Shared flanks, not repeated: GGGAGUUCUACAGUCCGACGAUC … UGGAAUUCUCGGGUGCCAA
Target sequence (chain): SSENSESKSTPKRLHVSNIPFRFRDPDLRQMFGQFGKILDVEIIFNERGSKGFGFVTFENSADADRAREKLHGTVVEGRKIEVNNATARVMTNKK
Sequence | RBNS enrichment (R)
AAGCGUAAAGAGGAUGUGUGGCAUUUUCACUUUUGGCUUGUAAAGUACAGACUUUUUUUUUUUUUUAAACAAAAAAAGCAUUGUAACUUAUGAACCUUUACAUCCAGAUA | 0.366
GGGUGUACGCUUGCCCUGGCUUAUGGAUUGGAAUGGGACUAAGGGGCAGCCCCAGCCCUGGGAACCUCUCCCACUACACCCACAAGACGCCACCAUGAAGCCUCAAAAGG | 0.346
CCAAGGGGUGGCAGCAUCACUCUGUUCUAGCAUUCUUUGUGGAGAUGGUCUGGUGCCUAGCUGGGAGUGAGCAGCAGCCCAUCCCCUGUUCACUUUCUCUAGCCCAUCAU | 0.982
UCUUAGCAUCUCCUCUAGUAUUUUCCAUGUAUCAGGACAGAGGUGUCUUAUGUAGGGAGGGGGCAAGUAUGAAGUAAGGUAAUUAUAUACUACUCUCAUUCAGGAUUCUU | 0.392
AGUGUGAUCUGGAUGUGUGAUAAUCCAUUUUUAGAAUAUUAAUUUCAUUACCCAUUAAUUAUGGCCAACUGUAAGGAGAUAGUCCUGUUACUAUUCUUAAAUGAAGUCCU | 0.351
UGCCAGUGAAGCCUCCAACCCUAAGCCACUGGGACGGUGGCCAGAGAUGCCAGCAGCCUCUGUCGCCCUUAGUCAUAUAACCAAAAUCCAGACCUUAUCCACAACCCGGG | 0.63
ACUCACUUUGGGCCAGAGAGAGGUUACCUCACAGUGUGCUUCUGACGUCACAUUUCUCGGCCUCCGACAUUAUGACAUUCUGCAUCCUGGUGCCUGAAGGAAACUCUGGG | 1.87
GGCGACUUGAAUAAAGUGGGAGGUCAAACAUGGGCCUUCGGCAUUGGGUUUCUAGGGAAUAUGGCUCAGUAGGGCCUGCCCCUUCAAGGGCAGCAAGAACGAAGCAGGAU | 0.326
GAAGGAAGGAAGGAAGGAAGGAAGGAAAGACUCAGCUUACUUGUAUCACAGUCUUGACAAAAUUCCUUUUCCCUAAAGCACACUUUGACAUUGUCACAUUAUUGACACAG | 0.279
CCUGGGCAACAUGGCGAAACCUCGUCUCUACUAAAAAUACAAAAUAUAUAUAUAUAUAUAUAUACUAGCUGGGGCACAUAGUGGUGUGCACCUGUAGUCCCAGCUGCUUG | 1.42
GUCUUCAAAUACCUUGAAAAAAAAUAGACUGUAUGUUGAAAAUUGUAUUGAAAUAAAGUAGAAAAUGUUCGGUAUCAUAUUUGUAACUAUCAACUUUUAAAAACAUUUGA | 0.948
AUUCUGGAAUAGAGAGUAUUUUAAAUUGAAAUGACCAAAUUCGAUUUAAAACAAACACAUAACAAUCUUCAGUAAAGUUAUUUGAACCUGUGGUUGACAAUUCUGUAUUG | 0.353

Block 3 — method: protein binding microarray; form: double-stranded DNA, one strand shown; medium: in vitro; tested at: not given; relative to: not given; direction: higher = stronger binding
Target: Histone acetyltransferase KAT6A, both winged helices, GST fusion (KAT6A, Homo sapiens, UniProt Q92794, residues 1-181)
Setting: 8-mer, flanks averaged, mean of 2 arrays, mostly near background
Target sequence (chain): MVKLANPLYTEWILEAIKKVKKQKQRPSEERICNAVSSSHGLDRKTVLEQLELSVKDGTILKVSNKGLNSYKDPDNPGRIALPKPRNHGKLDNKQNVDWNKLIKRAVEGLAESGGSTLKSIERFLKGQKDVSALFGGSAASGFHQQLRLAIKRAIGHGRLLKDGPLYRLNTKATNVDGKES
Sequence | E-score
AGTCATTC | -0.148
CAGCTACA | -0.198
GAGATGCA | -0.111
TGCGAACA | 0.0143
GCCGGGTA | 0.13
CTGTGTAA | -0.0971
GATGCCGA | 0.235
CTGCTATC | -0.108
CAGACAAC | -0.0714
AAGTCATT | -0.0871
CAAGGCCC | -0.043
CCTTTAGC | -0.0892
CGATAAGA | 0.0358
AGGGATAA | -0.177
AGTAACAT | -0.0103
TATTGGGA | -0.188
AGTGCCAG | -0.136
TTGAACAA | -0.00932
AGAACTGA | -0.0345

Block 4 — method: RNAcompete; form: RNA; medium: in vitro; tested at: 20 nM; setting: 7-mer, probes averaged, single round; relative to: mean of 7-mers; direction: higher = stronger binding
Target: PABPC1L2, full length, GST fusion (mouse, UniProt A0ABA7IW68)
Construct (chain): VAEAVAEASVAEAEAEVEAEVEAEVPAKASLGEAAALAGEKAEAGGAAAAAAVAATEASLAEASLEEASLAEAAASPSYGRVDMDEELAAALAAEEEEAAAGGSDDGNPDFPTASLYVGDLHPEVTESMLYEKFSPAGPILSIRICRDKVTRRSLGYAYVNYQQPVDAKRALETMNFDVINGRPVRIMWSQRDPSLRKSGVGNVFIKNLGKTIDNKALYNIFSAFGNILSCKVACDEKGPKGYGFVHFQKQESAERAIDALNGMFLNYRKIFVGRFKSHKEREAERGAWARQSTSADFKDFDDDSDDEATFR
Sequence | 7-mer Z-score
GACUUAA | 0.0732
ACGUACU | -0.237
CCGUUUU | -0.447
GGGCACA | 0.378
CAUUUAG | 0.378
AACAGCG | 0.28
CGUGUCU | -0.347
AAGUUGG | 0.126
UCUAGGU | -0.258
AGGAUAA | 0.36
UAAGAUG | 0.075
AACCCGU | -0.124
UUAGGAC | -0.0989
AUGUCCU | -0.182
GGGGCGU | 0.302
GGAUCAC | -0.108
CGACGCU | -0.371
UUGCUUC | -0.376
CCGACCG | -0.193
CAUGAAG | -0.113
UGCCCCG | -0.253
UCCUCCU | -0.411
AUAUAGU | -0.11
CAGUUCU | -0.293
CUCAUGA | -0.103
